Measured values collected from several papers.
Parts stem from different laboratories: compare values within a part only. Changes are numbered by the printed parent chain.

Sample 1
Target: CCND3, cyclin fold, Cln2 fusion (human)
Technique: yeast growth competition, sequencing
Sample: yeast
Setting: weak parent motif
Relative to: not given
Direction: higher = stronger binding
Starting sequence: PKN2 docking peptide (human); VSAVRKLDFSDTM; partner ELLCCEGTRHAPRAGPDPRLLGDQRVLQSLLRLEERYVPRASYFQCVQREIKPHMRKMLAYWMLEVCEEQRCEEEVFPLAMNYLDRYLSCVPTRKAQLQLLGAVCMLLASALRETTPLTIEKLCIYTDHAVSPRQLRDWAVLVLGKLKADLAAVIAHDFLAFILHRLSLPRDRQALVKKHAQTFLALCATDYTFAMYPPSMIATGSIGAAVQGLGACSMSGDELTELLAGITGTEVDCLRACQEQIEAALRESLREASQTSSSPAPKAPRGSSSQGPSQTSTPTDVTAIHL
Substitution | normalised enrichment score
VSAVRKLDFSDQM [T12Q] | 1.03
VSAVRKLDFYDTM [S10Y] | 0.806
VSAVRFLDFSDTM [K6F] | 0.24
VSAVHKLDFSDTM [R5H] | -0.169
VSNVRKLDFSDTM [A3N] | -0.1
VSAVRKLDFSDKM [T12K] | 0.695
VSAVRKLPFSDTM [D8P] | 0.163
VSAVRKLDRSDTM [F9R] | -0.0236
VSAVRKLDCSDTM [F9C] | -0.0105
VSAVRPLDFSDTM [K6P] | -0.478
VSAVRKADFSDTM [L7A] | 0.19
VSAVRKLDFSHTM [D11H] | 0.0153
VSAVRKLDFDDTM [S10D] | 1.5
VSAVRHLDFSDTM [K6H] | 0.22
VMAVRKLDFSDTM [S2M] | 0.137
VSAGRKLDFSDTM [V4G] | 0.118
VSAVRKLQFSDTM [D8Q] | 0.621
VSAVRKIDFSDTM [L7I] | 0.548
VSAVRKHDFSDTM [L7H] | 0.294
VSLVRKLDFSDTM [A3L] | -0.0122
VSASRKLDFSDTM [V4S] | 0.524
VSAVRKWDFSDTM [L7W] | 0.00206
VSPVRKLDFSDTM [A3P] | 0.152
VSAYRKLDFSDTM [V4Y] | 0.207
VSAERKLDFSDTM [V4E] | 0.305

Sample 2
Target: Centromere-binding protein 1, full length, His-tagged (CBF1, Saccharomyces cerevisiae, UniProt P17106, residues 1-351)
Chain of UniProt P17106 (whole entry, looked up): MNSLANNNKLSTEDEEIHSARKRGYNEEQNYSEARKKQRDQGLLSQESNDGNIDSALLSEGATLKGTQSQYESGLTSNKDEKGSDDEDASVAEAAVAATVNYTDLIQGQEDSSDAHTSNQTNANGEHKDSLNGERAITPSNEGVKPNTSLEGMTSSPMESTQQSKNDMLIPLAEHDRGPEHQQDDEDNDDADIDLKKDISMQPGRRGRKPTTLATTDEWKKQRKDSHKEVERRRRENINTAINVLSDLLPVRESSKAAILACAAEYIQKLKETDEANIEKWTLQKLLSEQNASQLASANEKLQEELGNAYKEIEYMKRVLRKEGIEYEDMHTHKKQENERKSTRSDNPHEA
Technique: competition protein-binding microarray
Form: double-stranded DNA, one strand shown
Sample: in vitro
Tested at: 2 µM
Setting: whole 60-bp probe, lowest competitor level
Together with: Pho4 competitor, 0.05 µM
Direction: higher = stronger binding
Sequence | fluorescence intensity
AGGCCCTAGGGGCCGTGCGTGGAGTAAAAAGGTTTGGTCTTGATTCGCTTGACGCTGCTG | 52.5 a.u.
TTTCGGCTTCACCTACACGTTTGATTAATCTTAAAGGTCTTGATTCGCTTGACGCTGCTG | 81 a.u.
TGCCCTTCGCAAAGCACCGTGCTTTTAATGGCAATCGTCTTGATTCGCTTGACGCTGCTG | 63.9 a.u.
CATACCCAACCTTTTCACGTGTGTTAAGATATTTGTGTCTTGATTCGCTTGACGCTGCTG | 973 a.u.
TCAAAGCCTTACTGGCACGCATCCTGATGGGGACGCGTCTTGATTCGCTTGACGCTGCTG | 71.6 a.u.
CCAATTTATTGACATCACCTGGAATGCAGGCGGTGGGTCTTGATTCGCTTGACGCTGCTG | 104 a.u.
ACCGGTTTTCTCGTCCACGTGAACGGTGTCAACACCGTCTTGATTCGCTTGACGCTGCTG | 1910 a.u.
TTACAGAGATACCAACACGTCCCATTGCAGTACATCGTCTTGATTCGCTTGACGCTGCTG | 67 a.u.
AACCTACAAAACACCGACGTGTTGAGCGTAAGAACCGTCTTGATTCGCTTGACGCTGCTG | 88.8 a.u.
CTTTCCCGATCTTTTCACGTGCGATTAGCACATTTGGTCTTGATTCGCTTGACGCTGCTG | 789 a.u.
GAGACTTTCAGCCATCACGTGTAATAAAATATCACCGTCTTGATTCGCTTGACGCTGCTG | 5180 a.u.
GGAGTAGACACACTACACGTGATGGCAGTAGGAGAGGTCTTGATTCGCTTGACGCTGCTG | 1520 a.u.
CATACCCAACCTTTTCACGTGCTTTAAGATATTTGTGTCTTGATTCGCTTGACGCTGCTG | 1630 a.u.
AAATTACTAAGTTGTCACAGTACTTACCCCGTATGAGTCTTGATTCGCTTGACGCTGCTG | 80.8 a.u.
CTTGGTTATCTTTGACATGTGTTTCGTTCAGGCGAGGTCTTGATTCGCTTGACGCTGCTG | 184 a.u.
GCTCTGTCATCGCTCAACGTGGAAGCTCCGACGGTGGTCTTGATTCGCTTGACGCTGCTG | 67 a.u.
GTCTTGTCTCATTGCTAGGTGGGTGTCCCCACTTCAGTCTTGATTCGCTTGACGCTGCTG | 74.8 a.u.
CGAATACGGGCGGCATTCGTGATGGCAATAGATTTAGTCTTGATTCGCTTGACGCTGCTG | 74 a.u.
CCTTACAGGAGATCGGACGTGTGAAATTATTGTTACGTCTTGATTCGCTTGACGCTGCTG | 89.7 a.u.

Sample 3
Target: Cyclic AMP-responsive element-binding protein 1 (CREB1, Homo sapiens, UniProt P16220, residues 1-327, full length assumed)
Chain of UniProt P16220 (whole entry, looked up): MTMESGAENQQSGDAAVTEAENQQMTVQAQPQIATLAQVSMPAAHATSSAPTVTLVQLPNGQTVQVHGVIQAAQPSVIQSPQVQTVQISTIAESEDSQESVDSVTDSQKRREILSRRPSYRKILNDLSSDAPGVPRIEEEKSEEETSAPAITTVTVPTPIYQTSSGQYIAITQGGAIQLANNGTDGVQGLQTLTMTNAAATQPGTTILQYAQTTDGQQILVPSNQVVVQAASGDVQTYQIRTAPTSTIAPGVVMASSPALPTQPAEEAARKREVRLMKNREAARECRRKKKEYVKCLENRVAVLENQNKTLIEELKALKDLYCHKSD
Technique: protein-binding microarray
Form: double-stranded DNA, one strand shown
Sample: in vitro
Tested at: not given
Setting: k-mer, scored over probes, only values ≥0.25
Direction: higher = stronger binding
Sequence | E-score
ACGTCAC | 0.498
TACATGA | 0.318
AATGACG | 0.477
AACATAC | 0.257
TATTACA | 0.283
TACGTCA | 0.496
CACACTA | 0.255
TGCGTAA | 0.317
AACGTAT | 0.29
GTCATGA | 0.266
AGTCACG | 0.261
ATGACAC | 0.276
CAAAAAA | 0.256
CGTCACC | 0.458
ACGTAAT | 0.475
ATAATCA | 0.254
CATTACA | 0.282
GACGACA | 0.256

Sample 4
Target: Fragile X messenger ribonucleoprotein 1, C-terminal low-complexity region (Fmr1, Mus musculus, UniProt P35922)
Technique: RNA Bind-n-Seq
Form: RNA
Sample: in vitro
Tested at: 200 nM
Setting: whole 134-nt RNA, ends assumed
Together with: 150 mM LiCl
Relative to: input library
Direction: higher = stronger binding
All molecules: 7-deaza-guanosine replaces G
Sequence | log2 enrichment
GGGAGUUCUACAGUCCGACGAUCAGUCCUGUGCUACACAUCGUAUGUACCGAAUCGGGGUUUUGGGUUUUGGGUUUUGGGAAAGUAUUAUGUUACGCCGUUCGGAUCUGCACUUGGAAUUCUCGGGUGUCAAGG | -1.67
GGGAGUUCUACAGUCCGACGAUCAAGUCCUGUGCUACACAUCGUAUGUACCGAAUCGGGUUUUUGGUUUUUGGUUUUUGGAAAGUAUUAUGUUACGCCGUUCGGAUCUGCACUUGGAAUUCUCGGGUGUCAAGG | -1.69
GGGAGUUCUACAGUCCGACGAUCGUCCUGUGCUACACAUCGUAUGUACCGAAUCGGGAAAAAAAGGGUGGGUUUUUUUGGGAAAGUAUUAUGUUACGCCGUUCGGAUCUGCACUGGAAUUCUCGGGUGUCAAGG | -1.6
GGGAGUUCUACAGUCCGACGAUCAAGUCCUGUGCUACACAUCGUAUGUACCGAAUCGGUUUUGGGGUUUUGGGUUUUGGAAAGUAUUAUGUUACGCCGUUCGGAUCUGCACUUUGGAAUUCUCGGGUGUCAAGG | -1.66
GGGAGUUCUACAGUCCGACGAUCCCUGUGCUACACAUCGUAUGUACCGAAUCGGCCCCCCCGGCCCCCCCGGGCCCCCCCGGGAAAGUAUUAUGUUACGCCGUUCGGAUCUGCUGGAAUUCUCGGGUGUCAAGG | 1.24
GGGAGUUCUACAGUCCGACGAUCUAGGAGGUGGAUUUUGUUUAUUUUUUUAGCUCAUUUCCAGGGGUGGGAAUUUUUUUUUAAUAUGUGUCAUGAAUAAAGUUGUUUUUGAAAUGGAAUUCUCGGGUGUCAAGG | 0.466
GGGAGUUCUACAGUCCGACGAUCUGGCCCUUGUGGCAUGCGGGGAGGAAGAGGUGGCCUCAUGGAUCGUGGUGGUCCCGGUGGAAUGUUCAGAGGUGGCCGUGGUGGAGACAGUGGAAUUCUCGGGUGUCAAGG | -0.104
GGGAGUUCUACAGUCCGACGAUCCAAGUCCUGUGCUACACAUCGUAUGUACCGAAUCGGAAAAAGGAAAGGUUUUUGGAAAGUAUUAUGUUACGCCGUUCGGAUCUGCACUUCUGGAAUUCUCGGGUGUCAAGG | -1.78

Repeated from above (sample 3):
Sequence | E-score
AACATAC | 0.257
TATTACA | 0.283
TACGTCA | 0.496
CACACTA | 0.255
TGCGTAA | 0.317
AACGTAT | 0.29
GTCATGA | 0.266
AGTCACG | 0.261
ATGACAC | 0.276
CAAAAAA | 0.256
